Assay results from different studies.
Lines come from different studies, so protocols differ. Numbers after ± are the reported error. In brackets after ≈: the same amount, converted by molar mass.
Organism: Staphylococcus aureus

Compound | test | test system | setting | how to read | endpoint | result
N[C@@H](Cc1cnc(C23CC4CC(CC(C4)C2)C3)[nH]1)C(=O)N[C@@H](Cc1c[nH]c2ccccc12)C(=O)N[C@@H](Cc1cnc(C23CC4CC(CC(C4)C2)C3)[nH]1)C(=O)NCc1ccccc1 | – | – | – | – | IC50 | 3.45 to 4.94 mg/L
CCCCCCCCCCCCCC(=O)N[C@@H](CCCNC(=N)N)C(=O)N[C@@H](CCCNC(=N)N)C(=O)N[C@@H](CCCNC(=N)N)C(N)=O | membrane permeabilisation | USA300 | 12.5 µM, with: 6.25 µM FITC | – | time to FITC dye entry | 150 s
CCCCCCCCCC1N=C(N)N=C(N)N1c1ccc(Cl)cc1.Cl (racemic) | broth microdilution | ATCC 11632 | with: 7.4 mg/mL thymidine | – | MIC90 | 4 µM
CNC(CC(C)C)C(=O)NC1C(=O)NC(CC(N)=O)C(=O)NC2C(=O)NC3C(=O)NC(C(=O)NC(C(=O)O)c4cc(O)cc(O)c4-c4cc3ccc4O)C(O)c3ccc(c(Cl)c3)Oc3cc2cc(c3OC2OC(CO)C(O)C(O)C2OC2CC(C)(NC(=O)CCCCCC[N+](C)(C)C)C(O)C(C)O2)Oc2ccc(cc2Cl)C1O (centres unmarked) | agar dilution | MRSA5 | – | reference: vancomycin, higher = more active | MIC fold improvement | 8 fold
COc1cc(NC(=O)CSc2nc3ccccc3c(=O)n2-c2ccc(S(N)(=O)=O)cc2)cc(OC)c1 | microbial growth, well diffusion | ATCC29213 | 500 µg/mL, 24 h | – | inhibition zone | 27 mm
CC[C@H](C)[C@H](N)C(=O)N[C@@H](CC(C)C)C(=O)N1CCC[C@H]1C(=O)N[C@@H](Cc1c[nH]c2ccccc12)C(=O)N[C@@H](CCCCN)C(=O)N[C@@H](Cc1c[nH]c2ccccc12)C(=O)N1CCC[C@H]1C(=O)N[C@@H](Cc1c[nH]c2ccccc12)C(=O)N[C@@H](Cc1c[nH]c2ccccc12)C(=O)N1CCC[C@H]1C(=O)N[C@@H](Cc1c[nH]c2ccccc12)C(=O)N[C@@H](CCCNC(=N)N)C(=O)N[C@@H](CCCNC(=N)N)C(N)=O | bactericidal activity | ATCC 29213, 5 mM HEPES-glucose buffer | 10 µM, 2 h, pH 7.4, 37 °C | – | log reduction viability | > 5 log
CCCCCCCCCC(=O)N[C@@H](Cc1c[nH]c2ccccc12)C(=O)N[C@H](CC(N)=O)C(=O)N[C@@H](CC(=O)O)C(=O)N[C@@H]1C(=O)NCC(=O)N[C@@H](CCCN)C(=O)N[C@@H](CC(=O)O)C(=O)N[C@H](C)C(=O)N[C@@H](CC(=O)O)C(=O)NCC(=O)N[C@H](CO)C(=O)N[C@@H]([C@H](C)CC(=O)O)C(=O)N[C@@H](CC(=O)c2ccccc2N)C(=O)O[C@@H]1C | XTT | MRSA ATCC BAA-1556 | 2 x MIC | reference: untreated | biofilm reduction | ~48%
COc1ccc(NC(=O)CSc2nc3ccccc3c(=O)n2-c2ccc(S(N)(=O)=O)cc2)cc1 | microbial growth, well diffusion | ATCC29213 | 500 µg/mL, 24 h | – | inhibition zone | 24 mm
CC[P+](CC)(CC)[Au-][S][C@@H]1O[C@H](COC(C)=O)[C@@H](OC(C)=O)[C@H](OC(C)=O)[C@H]1NC(=O)C(Cl)(Cl)Cl | – | JE2 USA300 | – | reference: auranofin | fold enhancement | ≤ 4
CN[C@H](CC(C)C)C(=O)N[C@H]1C(=O)N[C@@H](CC(N)=O)C(=O)N[C@H]2C(=O)N[C@H]3C(=O)N[C@H](C(=O)N[C@H](C(=O)O)c4cc(O)cc(O)c4-c4cc3ccc4O)[C@H](O)c3ccc(c(Cl)c3)Oc3cc2cc(c3O[C@@H]2O[C@H](CO)[C@@H](O)[C@H](O)[C@H]2O[C@H]2C[C@](C)(NCc3ccc(C(=O)OCCCCCCN(Cc4ccccn4)Cc4ccccn4)cc3)[C@H](O)[C@H](C)O2)Oc2ccc(cc2Cl)[C@H]1O | mature biofilm | ATCC 33591 MRSA | 20 µM, 24 h | reference: untreated | viable count reduction | 2 log CFU/mL
O=[N+]([O-])c1ccc(CSc2nnc(C34CC5CC(CC(C5)C3)C4)n2-c2ccccc2)cc1 | – | IFO 3060 | 200 µg/disc, 24 h, 37 °C | – | inhibition zone diameter | 21 mm
CCCCCCCCCCCCCCCCCC(=O)N[C@@H](CCCCN)C(=O)N[C@@H](CCCCN)C(=O)N[C@@H](CCCCN)C(=O)N[C@@H](CCCCN)C(=O)N[C@@H](CCCCN)C(N)=O | crystal violet | JE2 (MRSA) | 2 x MIC | – | biofilm inhibition | > 90%
COc1cccc(C2Nc3ccccc3C3=[O+][Cu-2]4([Cl])[O]c5c(cccc5OC)C=[N+]4N32)c1O (centres unmarked) | respiratory activity, MTT | ATCC 29213 | 0.25 × MIC | – | inhibition | 96.2%
CC[C@H](C)[C@H](NC(=O)[C@H](CCCCN)NC(=O)[C@H](CC(N)=O)NC(=O)[C@H](Cc1c[nH]c2ccccc12)NC(=O)[C@H](Cc1ccccc1)NC(=O)[C@H](CCCCN)NC(=O)[C@H](CCCCNC(=N)N)NC(=O)[C@H](CC(C)C)NC(=O)[C@H](Cc1c[nH]c2ccccc12)NC(=O)[C@H](CCCCN)NC(=O)[C@H](CCCCNC(=N)N)NC(=O)[C@H](CC(C)C)NC(=O)CNC(C)=O)C(=O)N[C@@H](CCCCN)C(=O)N[C@@H](CCCCNC(=N)N)C(N)=O | – | – | 12 h, with: plasma pretreatment | reference: MIC without plasma pretreatment | MIC fold increase | 2 fold
O=[N+]([O-])c1ccc2c(c1)C=[N+]1N3C(=[O+][Cu-2]1([Cl])[O]2)c1ccccc1NC3c1cc([N+](=O)[O-])ccc1O (centres unmarked) | mature biofilm | ATCC 29213 | 1 × MIC | – | biofilm eradication | 87.3 ± 4%
CC(C)CNCc1cc(N(C)C)c2c(c1O)C(=O)C1=C(O)[C@]3(O)C(=O)C(C(N)=O)=C(O)[C@@H](N(C)C)[C@@H]3C[C@@H]1C2 | – | MRSA 5 tetM, mouse thigh infection model | sc, 20 mg/kg, 24 h | reference: untreated control | log10 CFU change | 3.11 log10
CCCCCCCCCC1CC2CCCC3CC(CCCCCCCCC)NC(=N1)N23 (centres unmarked) | bacterial growth | ATCC 29213 | – | – | IC50 | 3.01 µM
O=C(Oc1cccccc1=O)c1ccc(Cl)cc1 | time-kill | ATCC 29213 | 1 x MIC80, 24 h | – | reduction in viable count | 1 log10 CFU
COc1cc(NC(=O)CSc2nc3ccccc3c(=O)n2-c2ccc(S(N)(=O)=O)cc2)cc(OC)c1OC | microbial growth, well diffusion | ATCC29213 | 500 µg/mL, 24 h | – | inhibition zone | 16 mm
CCCCCCCCCCCCCC(=O)N[C@H]1C(=O)N[C@@H](CN)C(=O)N[C@@H](CO)C(=O)N[C@@H](Cc2ccc(O)cc2)C(=O)O[C@H]1C | – | SH1000 | concentration not given, 18 h, 30 °C, with: other lipids or menaquinone-4 | – | antibacterial activity | no effect
Oc1c(Br)cc(Br)c2nc3ccccc3nc12 | Calgary Biofilm Device | MRSA 1707 | biofilm | – | MBEC | 100 µM
O=C(CCc1cc(O)c(O)c(O)c1)NCCCCCCCCCC[P+](c1ccccc1)(c1ccccc1)c1ccccc1 | – | XU212 | 2 x MIC, 1 h | – | K+ release | 2.24 ± 0.34 µg/mL
CC(=NNC(=N)N)c1nnn(-c2ccc(C#CC3(O)CCCCC3)cc2)c1C | – | ATCC 43300 MRSA | – | – | MBC | 15.6 mg/L (≈ 41.2 µM)

For quick reference, copied from above:
Compound | test | test system | setting | how to read | endpoint | result
COc1cc(NC(=O)CSc2nc3ccccc3c(=O)n2-c2ccc(S(N)(=O)=O)cc2)cc(OC)c1 | microbial growth, well diffusion | ATCC29213 | 500 µg/mL, 24 h | – | inhibition zone | 27 mm
CC[C@H](C)[C@H](N)C(=O)N[C@@H](CC(C)C)C(=O)N1CCC[C@H]1C(=O)N[C@@H](Cc1c[nH]c2ccccc12)C(=O)N[C@@H](CCCCN)C(=O)N[C@@H](Cc1c[nH]c2ccccc12)C(=O)N1CCC[C@H]1C(=O)N[C@@H](Cc1c[nH]c2ccccc12)C(=O)N[C@@H](Cc1c[nH]c2ccccc12)C(=O)N1CCC[C@H]1C(=O)N[C@@H](Cc1c[nH]c2ccccc12)C(=O)N[C@@H](CCCNC(=N)N)C(=O)N[C@@H](CCCNC(=N)N)C(N)=O | bactericidal activity | ATCC 29213, 5 mM HEPES-glucose buffer | 10 µM, 2 h, pH 7.4, 37 °C | – | log reduction viability | > 5 log
CCCCCCCCCC(=O)N[C@@H](Cc1c[nH]c2ccccc12)C(=O)N[C@H](CC(N)=O)C(=O)N[C@@H](CC(=O)O)C(=O)N[C@@H]1C(=O)NCC(=O)N[C@@H](CCCN)C(=O)N[C@@H](CC(=O)O)C(=O)N[C@H](C)C(=O)N[C@@H](CC(=O)O)C(=O)NCC(=O)N[C@H](CO)C(=O)N[C@@H]([C@H](C)CC(=O)O)C(=O)N[C@@H](CC(=O)c2ccccc2N)C(=O)O[C@@H]1C | XTT | MRSA ATCC BAA-1556 | 2 x MIC | reference: untreated | biofilm reduction | ~48%
